Results from different studies.
Each line is one published result; not all experiments were run side by side. “And” joins repeats or separate records; there may be more than shown.

SMILES | cell line | assay | conditions | scale | quantity | value
Cc1ccc(-n2cc(CSc3nc4ccccc4n3Cc3cn(-c4ccc(C)cc4)nn3)nn2)cc1 | MDA-MB-231 | MTT | 500 ppm | – | viability | 6.56%
CC(C)c1ccc(N(C)c2ccc3c(c2)OCC[C@H]3CNc2cnccc2C(=O)O)cc1 | WM-115 | cell growth or viability, ATP luminescence | 7 days | – | IC50 | 478 nM
Cc1ncsc1-c1ccc(C(C)NC(=O)C2CC(O)CN2C(=O)C(NC(=O)CCCCCCCCCCN2CCCC(Nc3ncc(Cl)c(Nc4ccccc4S(=O)(=O)C(C)C)n3)C2)C(C)(C)C)cc1 (stereo not shown) | 22Rv1 | RNA-seq, measured: SOWAHB mRNA | concentration not given | reference: DMSO | log2 fold change | -2.82
O=C(NCc1ccc(OC(F)(F)F)cc1)[C@H]1CCCN(c2ncnc3[nH]c(-c4ccccc4)cc23)C1 | NCI-H2228 | cell growth or viability, MTT | 0.04 µg/mL, 72 h | – | inhibition | 11.5%
Cn1ncc(-c2ccc3c(=O)[nH]nc(CN)c3c2)c1-c1c(F)c(Cl)cc(OC2CC2)c1C#N | CAPAN-1 | cell viability, inhibitor, CellTiter-Glo | 120 h, baseline-subtracted | – | IC50 | 40 nM
COc1ccc2c(c1)OC1=C(C(=O)CCC1)C2c1c[nH]c2ccccc12 (stereo not shown) | 3T3-L1 adipocytes | qPCR, measured: FAS | IC20, 14 days | reference: untreated mature adipocytes | mRNA level | decreased
Cn1ncc2cc(-c3cncc(Cl)c3N3CCC4(CCNC4=O)CC3)ccc21 | LS174T | gene expression, microarray, measured: RNF183 mRNA | concentration not given, 24 h | reference: untreated cells | log2 fold change | 3.38
COC(=O)c1cc(NC2=NC(=O)C(=Cc3ccc(N(C)C)cc3)S2)ccc1OC(C)=O | MCF7 | measured: RAD17 mRNA | 0.81 µM (IC50), 24 h | reference: DMSO | fold change | 0.3
[Cl-].[Cl-].[Ru+2].c1ccc(-c2ccccn2)nc1.c1ccc(-c2ccccn2)nc1.c1ccc2cc3nc4c5cccnc5c5ncccc5c4nc3cc2c1 | SK-MEL-28 | cell viability, resazurin | dark, 1% O2 hypoxia | reference: dark EC50 over visible EC50 | phototherapeutic index | 1
COc1ccc(-c2cc3c(N4CCC[C@H](C(=O)NCc5ccc(OC(F)(F)F)cc5)C4)ncnc3[nH]2)cn1 | NCI-H2228 | cell growth or viability, MTT | 1 µg/mL, 72 h | – | inhibition | 73.6%
O=C(C[Se]C(=O)c1cc2ccccc2o1)Nc1cccc(C(F)(F)F)c1 | NCI60 renal subpanel | cell growth, inhibitor | five-dose | – | GI50 | 1750 nM
CCCC(=O)N1CCN(c2ccc(NC(=O)c3ccc([N+](=O)[O-])o3)cc2Cl)CC1 | LDR | silenced CMV-GFP reporter derepression, qHTS | – | – | EC50 | 2510 nM
COc1ccccc1-c1ccncc1C(=O)Nc1nnc(OCc2ccc(Cl)cc2)s1 | PEO1 (BRCA2-mutant ovarian cancer) | – | 0.5 µM, together with: olaparib 0 µM | – | colony survival | 64.5% and 55.9%
[BH3-][P+]1(c2ccccc2)CCCCC1 | SW480 | Annexin V-FITC/PI flow cytometry | IC50, 72 h | – | late apoptotic cells | 5.35%
CN1CCCNC(=O)c2cccc(c2)C(=O)NCCCN(C)CCCNc2cccc3c2C(=O)c2cccc(c2C3=O)NCCC1 | SAS | RNA-Seq, measured: TADA3 mRNA | 1 µM, 6 h | reference: untreated cells | log2 fold change | 0.523
Cc1cc(NC2CCN(C)CC2)ccc1-c1cc2c(N3CCC[C@H](C(=O)Nc4ccc(C#N)cc4)C3)ncnc2[nH]1 | NCI-H2228 | cell growth or viability, MTT | 0.008 µg/mL, 72 h | – | inhibition | 55.3%
CNS(=O)(=O)Nc1nccc(Cc2c(C)c3ccc(Oc4ncccc4F)cc3oc2=O)c1F | CHL-1 | cell viability | 7 days | – | IC50 | 681 nM
Cc1cc(NC2CCN(C)CC2)ccc1-c1cc2c(N3CCC[C@H](C(=O)Nc4cccc(Cl)c4)C3)ncnc2[nH]1 | NCI-H2228 | cell growth or viability, MTT | 0.008 µg/mL, 72 h | – | inhibition | 44.3%
CCN(CC)CC(=O)Nc1cccc(-n2cc(-c3ccc4ccc(-c5cn(-c6cccc(NC(=O)CN(CC)CC)c6)nn5)cc4c3)nn2)c1 | RCC4 | PCR angiogenesis array, measured: TIE1 | 5 x IC50, 4 h, normoxia | reference: untreated | fold regulation | -1 fold
